Measured values from different studies.
Each line is one published result; not all experiments were run side by side. Numbers after ± are the reported error.

CCCCCCCCCCCCCCCC(=O)N[C@@H](CCC(=O)NCCOCCOCCC(=O)NCCOCCOCCC(=O)NCCCC[C@H](NC(=O)[C@H](CC(=O)O)NC(=O)[C@H](CC(C)C)NC(=O)[C@H](Cc1ccc(O)cc1)NC(=O)[C@H](CCCCN)NC(=O)[C@H](CO)NC(=O)[C@H](Cc1ccc(O)cc1)NC(=O)[C@H](CC(=O)O)NC(=O)[C@H](CO)NC(=O)[C@@H](NC(=O)[C@H](Cc1ccccc1)NC(=O)[C@@H](NC(=O)CNC(=O)[C@H](CCC(N)=O)NC(=O)[C@@H](CO)NC(=O)[C@@H](N)Cc1c[nH]cn1)[C@@H](C)O)[C@@H](C)O)C(=O)N[C@@H](CCCNC(=N)N)C(=O)N[C@@H](CCCNC(=N)N)C(=O)N[C@@H](C)C(=O)N[C@@H](CCC(N)=O)C(=O)N[C@@H](CC(=O)O)C(=O)N[C@@H](Cc1ccccc1)C(=O)N[C@H](C(=O)N[C@@H](CCC(N)=O)C(=O)N[C@@H](Cc1c[nH]c2ccccc12)C(=O)N[C@@H](CC(C)C)C(=O)N[C@@H](CC(C)C)C(=O)N[C@@H](CC(N)=O)C(=O)N[C@H](C(=O)NCC(=O)NCC(=O)N1CCC[C@H]1C(=O)N[C@@H](CO)C(=O)N[C@@H](CO)C(=O)NCC(=O)N[C@@H](C)C(=O)N1CCC[C@H]1C(=O)N1CCC[C@H]1C(=O)N1CCC[C@H]1C(=O)N[C@@H](CO)C(N)=O)[C@@H](C)O)C(C)C)C(=O)O
serum enzyme activity (item: AST; Sprague-Dawley rat, male; subcutaneous, 500 µg/kg once daily, 14 days): 151 ± 16 U/L

CSCC[C@H](NC(=O)CNC(=O)[C@H](CCCCN)NC(=O)[C@H](CC(C)C)NC(=O)[C@@H]1CCCN1C(=O)[C@H](CO)NC(=O)[C@H](Cc1c[nH]cn1)NC(=O)[C@H](Cc1c[nH]c2ccccc12)NC(=O)[C@H](CCCNC(=N)N)NC(=O)[C@H](CC(C)C)NC(=O)[C@H](CCCNC(=N)N)NC(=O)[C@H](Cc1c[nH]c2ccccc12)NC(=O)[C@H](CS)NC(=O)CCCCCNC(=O)CN1CCN(CC(=O)O)CCN(CC(=O)O)CCN(CC(=O)O)CC1)C(=O)O [copper-64 labelled]
tumour-to-muscle ratio (BALB/c nude mouse, Huh-7 tumour, tumour and muscle; intravenous, 1.85 MBq, 6 h, ex vivo biodistribution; reference: tumour over muscle): 15.2

N#[11C]c1ccc(-c2csc(NN=C3CCCC3)n2)cc1
uptake in stomach with contents (C57BL/6 mouse, male; intravenous, 3 MBq, 15 min): 5.9 ± 0.75 %ID/g

CC[C@H](C)[C@H](NC(=O)[C@H](C)NC(=O)[C@H](CCCCN)NC(=O)[C@H](CCCCN)NC(=O)[C@@H](N)CCCNC(=N)N)C(=O)N[C@@H](CCCCN)C(=O)N[C@@H](CC(C)C)C(=O)N[C@H](C(=O)N[C@@H](CCCCN)C(=O)N[C@@H](CCCCN)C(=O)N[C@@H](CC(C)C)C(=O)N[C@H](C(=O)N[C@@H](CCCCN)C(=O)N[C@@H](CCCCN)C(=O)N[C@@H](CC(C)C)C(=O)N[C@@H](CCCCN)C(=O)N[C@@H](CCCCN)C(=O)N[C@@H](C)C(=O)N[C@@H](CC(C)C)C(=O)N[C@@H](CCCCN)C(=O)O)C(C)C)C(C)C
hemolysis (human red blood cells; 0.25 mg/L, 1 h, mean of replicates): 0.106%

O=C1NC2(CC2)COc2ncc(F)cc2[C@H]2COCCN2c2ccn3ncc1c3n2
neutrophil percentage (Sprague-Dawley rat, male, blood; oral, 10 mg/kg/day, 4 weeks, end of recovery, subacute toxicity): 11.7 ± 2.5%

CC[C@H](C)[C@H](NC(=O)[C@@H](NC(=O)[C@H](C)NC(=O)[C@H](C)NC(=O)[C@H](CCC(N)=O)NC(=O)CNC(=O)[C@@H](NC(=O)[C@@H](NC(=O)[C@H](C)NC(=O)[C@@H](NC(=O)[C@H](C)NC(=O)[C@@H]1CCCN1C(=O)CNC(=O)[C@H](C)NC(=O)[C@H](CCCCN)NC(=O)[C@@H](NC(=O)[C@@H](NC(=O)CNC(=O)[C@H](CC(=O)O)NC(=O)[C@H](CCCNC(=N)N)NC(=O)[C@@H](NC(=O)[C@H](CC(N)=O)NC(=O)[C@H](CCC(N)=O)NC(=O)CNC(=O)[C@@H](NC(=O)[C@H](CCCCN)NC(=O)[C@H](CCC(=O)O)NC(=O)[C@@H](NC(=O)[C@H](CCCCN)NC(=O)[C@H](CCCCN)NC(=O)[C@H](Cc1ccccc1)NC(=O)[C@@H](NC(=O)[C@H](CCCCN)NC(=O)[C@H](Cc1c[nH]c2ccccc12)NC(=O)[C@@H](N)CCCNC(=N)N)[C@@H](C)CC)[C@@H](C)CC)C(C)C)[C@@H](C)CC)[C@@H](C)CC)C(C)C)C(C)C)C(C)C)C(C)C)[C@@H](C)O)C(N)=O
helical content (CD spectroscopy; 50% TFE in water; room temperature): 30.4%

CCCC[C@H]1C(=O)N(C)[C@@H](CCCC)C(=O)N[C@@H](CCCCNC(=S)Nc2ccc(CN3CCN(CC(=O)O)CCN(CC(=O)O)CC3)cc2)C(=O)N[C@H](C(=O)NCC(N)=O)CSCC(=O)N[C@@H](Cc2ccc(O)cc2)C(=O)N(C)[C@@H](C)C(=O)N[C@@H](CC(N)=O)C(=O)N2CCC[C@H]2C(=O)N[C@@H](Cc2cnc[nH]2)C(=O)N[C@@H](CCC(=O)O)C(=O)N2C[C@H](O)C[C@H]2C(=O)N[C@@H](Cc2c[nH]c3ccccc23)C(=O)N[C@@H](CO)C(=O)N[C@@H](Cc2cn(CC(=O)O)c3ccccc23)C(=O)N1C [fluorine-18 labelled]
tumour uptake (region of interest, PET/CT; HT-29 MSS xenograft, NSG mouse, female, tumour; intravenous, 60 min): 2.27 ± 0.74 %ID/mL

CC(C)[C@H](NC(=O)[C@@H](NC(=O)[C@H](CCCNC(=N)N)NC(=O)[C@H](CCCNC(=N)N)NC(=O)[C@H](CCCNC(=N)N)NC(=O)[C@H](CCC(N)=O)NC(=O)[C@H](CCCNC(=N)N)NC(=O)[C@H](CCCNC(=N)N)NC(=O)[C@H](CCCCN)NC(=O)[C@H](CCCCN)NC(=O)[C@H](CCCNC(=N)N)NC(=O)CN)[C@@H](C)O)C(=O)N[C@H](C(=O)N[C@@H](CO)C(=O)N1CCC[C@H]1C(=O)O)[C@@H](C)O
organ weight (ICR mice, male, heart; intranasal, 20 mg/kg daily, 4 weeks): 0.22 ± 0.031 g

COC(=O)[C@H]1[C@@H](c2ccc(Cl)c(Cl)c2)C[C@@H]2CC[C@H]1N2CCCCCCCCCCCc1c2ccccc2cc2ccccc12
pKa (fluorometric titration; 1 µM, 10% DMSO): 5

CC[C@H](C)[C@H](NC(=O)[C@H](CCCCN)NC(=O)CNC(=O)[C@H](CC(C)C)NC(=O)[C@H](Cc1ccccc1)NC(=O)[C@H](CCCCN)NC(=O)[C@H](CO)NC(=O)[C@H](Cc1ccccc1)NC(=O)[C@H](Cc1c[nH]c2ccccc12)NC(=O)[C@H](CCC(N)=O)NC(=O)[C@@H](NC(=O)[C@H](Cc1ccccc1)NC(=O)CCCCCNC(=O)CN1CCN(CC(=O)O)CCN(CC(=O)O)CCN(CC(=O)O)CC1)C(C)C)C(=O)N[C@@H](CCC(=O)O)C(=O)N1CCC[C@H]1C(=O)N[C@@H](CC(=O)O)C(=O)N[C@H](C(=O)N[C@@H](CO)C(=O)N[C@@H](CCC(N)=O)C(=O)N[C@H](C(=O)N[C@@H](CCC(N)=O)C(=O)N[C@@H](CC(=O)O)C(=O)N1CCC[C@H]1C(=O)N[C@@H](CC(N)=O)C(=O)N[C@@H](CC(=O)O)C(=O)N[C@@H](CCC(N)=O)C(=O)N[C@@H](Cc1ccc(O)cc1)C(=O)N[C@@H](CCC(=O)O)C(=O)N1CCC[C@H]1C(=O)N[C@@H](Cc1ccccc1)C(=O)O)C(C)C)C(C)C [copper-64 labelled]
SUVmean (dynamic PET; mouse both sexes, CT26 tumour, checkpoint inhibitor-treated, tumour; intravenous, 100 µCi/mouse, 110 s): 2.77 SUV

CC[C@H](C)[C@H](NC(=O)CN)C(=O)N[C@@H](CCCNC(=N)N)C(=O)N[C@@H](CCCCN)C(=O)N[C@@H](Cc1c[nH]c2ccccc12)C(=O)N[C@@H](Cc1ccccc1)C(=O)N[C@@H](CCCCN)C(=O)N[C@@H](CCCCN)C(=O)N[C@@H](C)C(=O)N[C@@H](C)C(=O)N[C@@H](Cc1c[nH]cn1)C(=O)N[C@H](C(=O)NCC(=O)N[C@@H](CCCCN)C(=O)N[C@@H](CCC(=O)O)C(=O)N[C@H](C(=O)NCC(=O)N[C@@H](CCCCN)C(=O)N[C@H](C(=O)N[C@@H](C)C(=O)N[C@@H](CC(C)C)C(=O)N[C@@H](CC(N)=O)C(=O)N[C@@H](C)C(=O)N[C@@H](CS)C(=O)N[C@@H](CC(C)C)C(=O)O)C(C)C)C(C)C)C(C)C
chronic toxic concentration (zebrafish embryos 28 hpf, E3 medium; 24 h): 25 µM

CCCN(C)c1cc(C(F)(F)F)nc(SCCC(=O)NCc2ccco2)n1
tolerability (item: visible adverse effects; Wistar rat; intraperitoneal, 25 mg/kg single dose): not toxic

CCN(CC)CCOc1ccc(-c2nnn(Cc3ccc(OC)cc3)c2N)cc1
remaining compound (dog liver microsomes; concentration not given, time not given): 36.1%

Repeated from above:
CC[C@H](C)[C@H](NC(=O)CN)C(=O)N[C@@H](CCCNC(=N)N)C(=O)N[C@@H](CCCCN)C(=O)N[C@@H](Cc1c[nH]c2ccccc12)C(=O)N[C@@H](Cc1ccccc1)C(=O)N[C@@H](CCCCN)C(=O)N[C@@H](CCCCN)C(=O)N[C@@H](C)C(=O)N[C@@H](C)C(=O)N[C@@H](Cc1c[nH]cn1)C(=O)N[C@H](C(=O)NCC(=O)N[C@@H](CCCCN)C(=O)N[C@@H](CCC(=O)O)C(=O)N[C@H](C(=O)NCC(=O)N[C@@H](CCCCN)C(=O)N[C@H](C(=O)N[C@@H](C)C(=O)N[C@@H](CC(C)C)C(=O)N[C@@H](CC(N)=O)C(=O)N[C@@H](C)C(=O)N[C@@H](CS)C(=O)N[C@@H](CC(C)C)C(=O)O)C(C)C)C(C)C)C(C)C
chronic toxic concentration (zebrafish embryos 28 hpf, E3 medium; 24 h): 25 µM

CCCN(C)c1cc(C(F)(F)F)nc(SCCC(=O)NCc2ccco2)n1
tolerability (item: visible adverse effects; Wistar rat; intraperitoneal, 25 mg/kg single dose): not toxic
